Measured values of several laboratories.
Protocols differ between the studies behind these lines. ± gives the spread as reported.
UniProt P08183, sequence (whole entry, looked up): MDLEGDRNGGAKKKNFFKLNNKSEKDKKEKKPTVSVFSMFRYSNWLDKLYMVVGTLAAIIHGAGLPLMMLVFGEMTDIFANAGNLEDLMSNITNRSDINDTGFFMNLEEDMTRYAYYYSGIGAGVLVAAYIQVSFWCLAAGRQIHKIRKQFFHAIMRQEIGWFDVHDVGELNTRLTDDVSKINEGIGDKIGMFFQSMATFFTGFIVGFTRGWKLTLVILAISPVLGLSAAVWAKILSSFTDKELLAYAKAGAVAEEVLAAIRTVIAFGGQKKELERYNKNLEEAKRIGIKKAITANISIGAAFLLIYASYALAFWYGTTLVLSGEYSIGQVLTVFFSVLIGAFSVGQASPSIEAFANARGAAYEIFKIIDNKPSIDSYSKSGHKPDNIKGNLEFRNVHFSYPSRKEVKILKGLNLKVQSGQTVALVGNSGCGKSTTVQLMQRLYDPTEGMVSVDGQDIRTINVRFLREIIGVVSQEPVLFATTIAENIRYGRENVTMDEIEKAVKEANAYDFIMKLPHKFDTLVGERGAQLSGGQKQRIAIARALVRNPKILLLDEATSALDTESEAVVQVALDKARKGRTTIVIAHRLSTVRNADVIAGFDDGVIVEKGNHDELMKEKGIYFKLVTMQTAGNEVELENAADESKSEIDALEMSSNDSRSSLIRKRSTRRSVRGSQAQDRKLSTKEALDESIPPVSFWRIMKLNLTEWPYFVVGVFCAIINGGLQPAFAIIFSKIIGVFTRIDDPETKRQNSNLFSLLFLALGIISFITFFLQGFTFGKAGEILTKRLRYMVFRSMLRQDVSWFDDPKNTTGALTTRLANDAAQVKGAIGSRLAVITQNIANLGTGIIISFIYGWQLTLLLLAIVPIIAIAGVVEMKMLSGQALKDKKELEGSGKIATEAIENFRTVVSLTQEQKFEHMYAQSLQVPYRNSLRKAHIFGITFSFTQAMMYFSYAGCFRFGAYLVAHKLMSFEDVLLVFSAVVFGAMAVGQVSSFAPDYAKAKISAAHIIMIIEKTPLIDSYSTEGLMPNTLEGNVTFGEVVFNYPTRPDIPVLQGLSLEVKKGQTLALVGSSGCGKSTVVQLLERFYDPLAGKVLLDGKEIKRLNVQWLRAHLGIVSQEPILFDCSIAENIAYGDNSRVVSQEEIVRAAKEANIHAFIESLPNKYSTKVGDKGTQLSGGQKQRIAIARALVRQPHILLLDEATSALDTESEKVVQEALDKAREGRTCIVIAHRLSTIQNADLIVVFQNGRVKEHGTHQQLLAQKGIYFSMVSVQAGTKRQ

Cc1noc(C)c1Cn1cc(N2C(=O)CN(Cc3cccc(O)c3)C2=O)cn1 — aberrant cells with gaps (human blood lymphocytes; 1100 µg/mL, 3 h, with 5% S9): 4.5%
O=C(Nc1nc2cccc(-c3ccc(CN4CCS(=O)(=O)CC4)cc3)n2n1)C1CC1 — treatment-emergent adverse events (refers to: immune system disorders; human rheumatoid arthritis patients; oral, 30 mg once daily, 4 weeks, regardless of relatedness): 5.9%
CC[C@H](CO)N(CCN(N=O)[C@H](CC)CO)N=O — revertant colonies per plate (Salmonella typhimurium; mutagenicity, Ames plate incorporation; TA1537; 150 µg/plate, without S9, methanol): 12.7 ± 2
COC(=O)c1cccc(Cn2ccc3ccc(-c4ccc5ccn(Cc6cccc(C(=O)O)c6)c5c4)cc32)c1 — therapeutic index (human immunodeficiency virus 1; viral attachment, MAGI cell; MAGI cells, Ba-L; CCR5-tropic; relative to: TC50 over IC50): 1.93
COc1c(O[C@@H]2O[C@H](CO)[C@@H](O)[C@H](O)[C@H]2O)c(C)cc2c1C(=O)c1c(O)cccc1C2=O — cell viability (HK-2 co-cultured with HepaRG; MTT; 16.67 µM, 24 h; relative to: untreated control): 87.3 ± 4.56%
N#Cc1ccc(Nc2nc(N)cc(Oc3ccc(-c4ccc(C#N)cc4)c(Cl)c3)n2)cc1 — CC50 (MT4 uninfected): > 45 µM
COc1ccc(Cc2cnc(N)nc2N)cc1OC — inhibition (THP-1; pyroptotic LDH release; 2 µM, 40 min, added: LPS then nigericin): -25.8%
COc1cc2c(c(O)c1OC)C(=O)c1c(cc(C)c(O)c1OC)C2=O — cell viability (HK-2 co-cultured with HepaRG; MTT; 16.67 µM, 24 h; relative to: untreated control): 77.3 ± 8%
CC[C@H]1[C@@H](O)[C@@H]2[C@H](CC[C@]3(C)[C@@H]([C@H](C)CCNC(=O)NS(=O)(=O)c4ccc(C(C)(C)C)cc4)CC[C@@H]23)[C@@]2(C)CC[C@@H](O)C[C@@H]12 — Cmax (ATP-dependent translocase ABCB1 (ABCB1, Homo sapiens, UniProt P08183); human, plasma; dose not given, mean, added: quinidine): 33.9 ng/mL
O=C1c2cccc(O)c2C(=O)c2c(O)cc(CO)cc21 — viability (HK-2 co-cultured with HepaRG; MTT; 133.33 µM, 48 h; relative to: untreated control): 65.3 ± 7.75%
c1csc(CNc2cc[nH]n2)c1 — cells with structural aberrations (human peripheral blood lymphocytes, female; 1130 µg/mL, 4 h, without S9): 0.5%
Nc1ccc2cc3ccccc3cc2c1 — revertants per well (Salmonella typhimurium; mini-Ames test; TA97a; 20.0 µg/well, with rat liver S9): 109
O=C(O)c1cc(O)c2c(c1)C(=O)c1cccc(O[C@@H]3O[C@H](CO)[C@@H](O)[C@H](O)[C@H]3O)c1C2=O — cell viability (HK-2 co-cultured with HepaRG; MTT; 16.67 µM, 48 h; relative to: untreated control): 91 ± 3.49%
N=C1CCCN1Cc1nc(O)nc(O)c1Cl — inhibition (THP-1; pyroptotic LDH release; 2 µM, 40 min, added: LPS then nigericin): 34.3%

Excerpt of the above:
Nc1ccc2cc3ccccc3cc2c1 — revertants per well (Salmonella typhimurium; mini-Ames test; TA97a; 20.0 µg/well, with rat liver S9): 109
